Measured values collected from several papers.
± gives the spread as reported.

The IC50 of `COc1ccc2c(NC(=O)CBr)c(C(=O)c3cc(OC)c(OC)c(OC)c3)oc2c1` is reported as 0.72 µM (L1210; cell growth or viability; 24 h).
For `O=c1cc(-c2ccccc2)oc2cc(O)cc(O)c12`, the IC50 was 217 µM (MOLT-3; cell growth or viability, ATP luminescence; 24 h).
`COc1cc(C(=O)c2oc3c(OC)cccc3c2NC(=O)CBr)cc(OC)c1OC` gave an IC50 of > 100 µM (L1210; cell growth or viability; 24 h).
`CCCCCCCCCCCCCCCCNC[C@@H]1CSC(c2ccccc2)N1` (mixture of isomers) has an IC50 of 60 to 84.5 µM (human Fibroblast; cell growth or viability, SRB; 48 h).
The IC50 of `CCCCCCCCCCCCCCCCCC[N+](C)(C)CCCS(=O)(=O)[O-]` is reported as 77 µM (SK-OV-3 eGFP-transfected; cell viability, MTT; 24 h).
`CC(C)C[C@H](NC(=O)[C@H](Cc1ccccc1)NC(=O)c1cnccn1)B(O)O` has an IC50 of 0.015 µM (RPMI-8226; cell viability; 48 h, together with: EGCG 3800 nM).
`C=CCc1ccc(OCc2nnc(SCC(=O)N3CCOCC3)o2)c(OC)c1` has an IC50 of 61.1 µM (SK-OV-3; cell growth or viability, MTT; 72 h).
`C[C@H](O)c1cc(C(=O)N[C@@H](C)Cn2ccc(-c3ccc(C#N)c(Cl)c3)n2)n[nH]1` gave an IC50 of 0.84 µM (LAPC4; cell growth or viability, ATP luminescence).
With `CC(=O)OC[C@H]1O[C@@H]([S-])[C@H](OC(C)=O)[C@@H](OC(C)=O)[C@@H]1OC(C)=O.CCP(CC)CC.[Au+]` the IC50 was 0.4 ± 0.3 µM (RC-124 kidney epithelial; cell proliferation, crystal violet staining; 96 h).
`COc1cccc(-c2cc3ccccc3[nH]2)c1` has an IC50 of 5.8 ± 1.1 µM (HEK293 NF-κB luciferase reporter; reporter gene, item: NF-κB; 6 h, together with: TNFα).
`COc1ccccc1-c1nccc(COc2ccccc2C[C@@H](Nc2ncnc3oc(-c4ccc(F)cc4)c(-c4ccc(OCCN5CCN(C)CC5)c(Cl)c4C)c23)C(=O)O)n1` gave an IC50 of 0.018 µM (NCI-H929; cell viability, MTT; 48 h, 10% CFS).
`COc1cc(-c2c3n(c4c(=O)[nH]nc(O)c24)CCn2cccc2-3)cc(OC)c1OC` gave an IC50 of 72.8 µM (PANC-1; cell growth or viability, MTT; 48 h).
The IC50 of `COC(=O)c1ccc2c(c1)NC(=O)/C2=C(\Nc1ccc(N(C)C(=O)CN2CCN(C)CC2)cc1)c1ccccc1` is reported as 0.526 µM (human Fibroblast; cell growth or viability, thymidine uptake; 48 h).
With `Oc1cccc(-c2nc(N3CCOCC3)c3oc4ncccc4c3n2)c1` the IC50 was 0.018 ± 0.002 µM (IGROV-1; AKT Ser473 phosphorylation, inhibitor, electrochemiluminescent immunoassay; 2 h).
With `O=C(NNC(=O)c1ccccc1O)c1cccnc1` the IC50 was > 10 µM (PANC-1; cell growth or viability; 72 h).
`COc1ccccc1-c1nccc(COc2ccccc2C[C@@H](Oc2cccc3oc(-c4ccc(F)cc4)c(-c4ccc(OCCN5CCN(C)CC5)c(Cl)c4C)c23)C(=O)O)n1` has an IC50 of 0.047 µM (NCI-H929; cell viability, MTT; 48 h, 10% CFS).
With `COc1cc(C(=O)c2oc3c(OC)cccc3c2NC(=O)CCl)cc(OC)c1OC` the IC50 was 62.7 µM (L1210; cell growth or viability; 24 h).
With `Cn1cc(Nc2nccc(-c3ccc4c(c3)CN(C3COC3)CC[C@H]4NC(=O)c3cn(C(C)(C)C)nn3)n2)cn1` the IC50 was 0.008 ± 0.009 µM (human primary monocytes; TNFα production; three donors, together with: anti-human CD16 (FcγR stimulation)).
`Cc1cc(C(=O)/C(=C\c2ccccc2C)c2ccccc2C)c(C(=O)N2CCCCC2)c(=O)[nH]1` has an IC50 of > 10 µM (human primary dermal fibroblasts; cell proliferation, MTT; 72 h).
For `COC(=O)c1c(-c2cccc(C)c2)c2n(c1C(=O)OC)CCn1cccc1-2`, the IC50 was 74.2 µM (PANC-1; cell growth or viability, MTT; 48 h).
For `NC1(c2ccc(-c3nc4ccn5c(=O)[nH]nc5c4cc3-c3ccccc3)cc2)CCC1`, the IC50 was ~0.05 µM (MDA-MB-231 LINK-A PIP3-BM knock-out; spheroid growth, 3D spheroid viability).
With `COc1c(O)cc2oc3cc(O)c(CC=C(C)C)c(O)c3c(=O)c2c1CC=C(C)C` the IC50 was 26.3 ± 0.08 µM (H1L6.1c3; cell viability, MTT).
With `COc1cc([C@@H]2c3cc4c(cc3[C@@H](O[C@@H]3O[C@@H]5CO[C@@H](C)O[C@H]5[C@H](O)[C@H]3O)[C@H]3COC(=O)[C@H]23)OCO4)cc(OC)c1O` the IC50 was 5.48 µg/mL (HCT-15/ADM2-2; cell growth, XTT; 72 h).
For `COc1ccc2cc(-c3cc4ccccc4[nH]3)ccc2c1`, the IC50 was 0.6 ± 0.2 µM (HEK293 NF-κB luciferase reporter; reporter gene, item: NF-κB; 6 h, together with: TNFα).
With `Cc1cc(=O)oc2c(C)c3c(cc12)C(=O)CC1(CCCCC1)O3` the IC50 was 362 ± 155 µM (NIH3T3; hyaluronan secretion; 72 h).
The IC50 of `C=C1C(=O)O[C@@H]2C[C@@]3(C)CCC[C@H](C)C3=C[C@H]12` is reported as 1.01 µM (LAPC4; AR transcriptional activity, antagonist, PSA promoter luciferase; 24 h).
`O=C(/C=C/c1ccc(CN2CCCCC2)c(O)c1)c1ccc(F)cc1` has an IC50 of 27.7 µM (WRL68; cell growth or viability, MTT; 72 h).
`CCCS(=O)(=O)Nc1ccc(F)c(C(=O)c2c[nH]c3ncc(Cl)cc23)c1F` gave an IC50 of 4.3 µM (UACC-62; cell growth, IncuCyte confluence).
For `COc1ccc(/C=C\c2cc(OC)c(OC)c(OC)c2)cc1O`, the IC50 was 0.0034 µM (MDA-MB-435; cell growth or viability, SRB).
`C=CCc1ccc(O)c(-c2ccc(O)c(CC=C)c2)c1` gave an IC50 of 126 µM (GM12878; cell proliferation, MTS; 24 h, together with: BLM 10 µM).
`CC(=O)OC[C@H]1O[C@@H]([S-])[C@H](OC(C)=O)[C@@H](OC(C)=O)[C@@H]1OC(C)=O.CCP(CC)CC.[Au+]` gave an IC50 of 3.08 ± 0.13 µM (CAKI-1; cytotoxicity, XTT).
The IC50 of `COc1ccc2c(N)c(C(=O)c3cc(OC)c(OC)c(OC)c3)oc2c1` is reported as 0.042 µM (L1210; cell growth or viability).
For `COC(=O)c1c(-c2ccc(O)c(OC)c2)c2n(c1C(=O)OC)CCn1cccc1-2`, the IC50 was 44 µM (PANC-1; cell growth or viability, MTT; 48 h).
The IC50 of `C=CC(C)(CO)c1cc2cc(-c3ccc(O)cc3O)c(=O)oc2cc1O` (stereo not drawn) is reported as > 100 µM (Hepa1c1c7; cell growth).
With `COc1ccc(C[C@H]2COC(=O)[C@@H]2Cc2ccc(OCCCCCCC(=O)NO)c(OC)c2)cc1OC` the IC50 was 1.37 µM (CCRF-CEM; cell growth or viability, CCK-8; 48 h).
For `COC(=O)c1c(-c2ccccc2)c2n(c1C(=O)OC)CCn1cccc1-2`, the IC50 was 70.1 µM (PANC-1; cell growth or viability, MTT; 48 h).
`C[C@]12C=CC(=O)C=C1CC[C@@H]1[C@@H]2[C@@H](O)C[C@@]2(C)[C@H]1CC[C@]2(O)C(=O)CO` gave an IC50 of 0.417 µM (C2C12 myoblasts; NF-κB reporter gene, inhibitor; 24 h pretreatment, together with: TNF-α 10 ng/mL, 24 h).
For `Cn1nnc2c(C(N)=O)ncn2c1=O`, the IC50 was < 1000 µM (GM12878; cell proliferation, MTS; 24 h, together with: HNL 10 µM).
With `C=CC(C)(C)c1cc2cc(-c3ccc(O)cc3O)c(=O)oc2cc1O` the IC50 was 41.3 µM (Hepa1c1c7; cell growth).
With `Cc1cc(C(=O)/C(=C\c2ccc(Br)cc2)c2ccc(Br)cc2)c(C(=O)N2CCCCC2)c(=O)[nH]1` the IC50 was > 10 µM (human primary dermal fibroblasts; cell proliferation, MTT; 72 h).
With `COC(=O)c1c(-c2cc(OC)c(OC)c(OC)c2)c2n(c1C(=O)OC)CCn1cccc1-2` the IC50 was 66 µM (PANC-1; cell growth or viability, MTT; 48 h).
For `COc1ccc(CNc2nc(NCc3ccc(OC)cc3)c3ncn(C(C)C)c3n2)cc1`, the IC50 was 4.05 µM (LAPC4; AR transcriptional activity, antagonist, PSA promoter luciferase; 24 h).
